Measured values gathered from unrelated publications.
Each numbered part is a random draw from the data of one study; scales do not carry over between parts.

Series 1 — technique: universal PBM; molecule type: double-stranded DNA, one strand shown; sample: in vitro; concentration: 600 nM; direction: higher = stronger binding
Target: Sal-like protein 4, full length isoform A (SALL4, Homo sapiens, UniProt Q9UJQ4, residues 1-1053)
Sequence of UniProt Q9UJQ4 (whole entry, looked up): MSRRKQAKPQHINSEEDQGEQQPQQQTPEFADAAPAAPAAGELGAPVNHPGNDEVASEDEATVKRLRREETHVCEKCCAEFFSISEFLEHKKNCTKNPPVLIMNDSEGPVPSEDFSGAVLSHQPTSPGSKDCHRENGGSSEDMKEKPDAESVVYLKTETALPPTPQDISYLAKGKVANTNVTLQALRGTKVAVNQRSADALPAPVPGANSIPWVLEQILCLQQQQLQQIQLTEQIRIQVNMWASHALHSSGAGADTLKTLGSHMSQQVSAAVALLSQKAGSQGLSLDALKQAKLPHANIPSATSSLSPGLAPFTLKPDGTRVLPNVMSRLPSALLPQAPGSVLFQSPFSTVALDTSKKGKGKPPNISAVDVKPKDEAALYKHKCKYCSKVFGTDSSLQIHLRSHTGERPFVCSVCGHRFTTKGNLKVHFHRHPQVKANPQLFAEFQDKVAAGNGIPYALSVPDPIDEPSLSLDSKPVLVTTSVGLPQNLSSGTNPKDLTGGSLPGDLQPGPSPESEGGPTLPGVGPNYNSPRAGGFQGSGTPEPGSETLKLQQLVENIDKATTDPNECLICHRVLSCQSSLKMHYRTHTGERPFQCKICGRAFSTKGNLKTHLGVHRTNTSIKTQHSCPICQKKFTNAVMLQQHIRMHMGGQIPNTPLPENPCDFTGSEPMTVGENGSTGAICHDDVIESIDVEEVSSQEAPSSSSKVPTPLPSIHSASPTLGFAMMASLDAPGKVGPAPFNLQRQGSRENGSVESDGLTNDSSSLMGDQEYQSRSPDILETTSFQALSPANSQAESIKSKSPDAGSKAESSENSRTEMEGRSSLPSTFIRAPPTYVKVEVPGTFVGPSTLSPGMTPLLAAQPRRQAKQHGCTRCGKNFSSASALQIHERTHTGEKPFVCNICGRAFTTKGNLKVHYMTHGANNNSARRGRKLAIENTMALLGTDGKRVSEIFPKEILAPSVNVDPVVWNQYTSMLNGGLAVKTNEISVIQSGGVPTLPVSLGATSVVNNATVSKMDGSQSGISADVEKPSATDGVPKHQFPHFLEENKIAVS
Setting: 8-mer, flanks averaged, mean of replicates
Strand	E-score
ATGAAACG	0.259
ACAGGACT	-0.136
CCATGGCG	-0.0771
CGGAACGA	-0.0479
CTGACAAC	-0.0954
ATCGGTAA	0.168
CAAAATCC	0.0247
ACTACGGG	-0.196
CGTCGCGC	-0.273
CCAAGTCA	-0.0437
GCGATGAC	-0.101
GGAACTCC	-0.221
AACCTCTT	0.174
CTACTACC	0.0228

Series 2 — technique: protein-binding microarray; molecule type: double-stranded DNA, one strand shown; sample: in vitro; concentration: 2540 nM top; setting: 60-bp whole probe; together with: salmon DNA 0.4 mg/ml; baseline: random background probes; direction: higher = stronger binding; shared flanks, not repeated: GCCTAGCAC … GTCTTGATTCGCTTGACGCTGCTG
Target: Interferon regulatory factor 3, full length, phosphomimetic (IRF3, Homo sapiens, UniProt Q14653, residues 1-427, S386D/S396D/S398D/S402D/T404D/S405D)
Residues (chain): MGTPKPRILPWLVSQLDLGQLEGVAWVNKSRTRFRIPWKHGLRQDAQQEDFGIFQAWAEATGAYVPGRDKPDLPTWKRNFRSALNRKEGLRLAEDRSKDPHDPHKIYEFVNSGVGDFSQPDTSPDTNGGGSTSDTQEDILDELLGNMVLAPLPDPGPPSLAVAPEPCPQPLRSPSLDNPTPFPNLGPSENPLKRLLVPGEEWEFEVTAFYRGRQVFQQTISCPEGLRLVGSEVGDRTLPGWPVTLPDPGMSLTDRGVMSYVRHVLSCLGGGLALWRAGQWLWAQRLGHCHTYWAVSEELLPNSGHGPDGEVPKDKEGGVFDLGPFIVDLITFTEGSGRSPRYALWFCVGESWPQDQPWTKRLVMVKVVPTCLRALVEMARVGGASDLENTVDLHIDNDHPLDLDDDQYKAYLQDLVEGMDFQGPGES
Strand	fitted relative affinity [z-score]
TTAGGTTCCGGTGTCGGTTAGTGCTAG	2.53
TTAGATTTCGGGTATCCATTAGTGCTA	1.92
TCAAATTTTAGTAACACACTGTGCTAG	0.0243
GACGGAATGGGACTGGGGACGTGCTAG	-0.612
TCATGTTTGGTCCTGATACTGTGCTAG	0.314
TCATCTTTCGATGCTAAAACTGTGCTA	1.69
TTAGGACTGGACTATCGATTAGTGCTA	-0.345
GACGGACTGGGGCCTGGGGACGTGCTA	-1.21
TCCTGTGACGTTAAGGTCTCGTGCTAG	-0.514

Series 3 — technique: aptamer microarray, sandwich; molecule type: DNA with 2'F-ANA; sample: in vitro; concentration: 200 nM; together with: Cy3 exosite-II aptamer, 400 nM; direction: higher = stronger binding; strand: GGTTGGTGTGGTTGG
Target: Prothrombin, mature alpha-thrombin (F2, Homo sapiens, UniProt P00734)
Setting: whole 15-mer aptamer, many near background
Modification	mean fluorescence intensity
2'F-ANA at 2 4 5 6 8 11 14 15	47.6 a.u.
2'F-ANA at 1 2 3 7 11 13	205 a.u.
2'F-ANA at 3 6 7 8 13	929 a.u.
2'F-ANA at 1 3 5 7 9 11	60.2 a.u.
2'F-ANA at 1 6 11 13 15	145 a.u.
2'F-ANA at 1 2 4 6 9 10 14 15	49.4 a.u.
2'F-ANA at 1 2 4 8 9 10 11 12 13 15	58.4 a.u.
2'F-ANA at 2 4 5 6 8 9 11 12 13 14 15	46 a.u.
2'F-ANA at 8 9 12 14	242 a.u.
2'F-ANA at 1 7 10 11 13 14	55.5 a.u.
2'F-ANA at 1 3 5 6 8 9 12 14 15	112 a.u.
2'F-ANA at 1 4 5 6 7 11 12	89.1 a.u.
2'F-ANA at 1 2 3 5 7 11 12	94 a.u.
2'F-ANA at 2 4 5 7 8 10 11 13 14	46.1 a.u.

Single results of other studies
Substance	target	test	test system	conditions	how to read	measurement	value
PhoQ, residues 284 288 289 292 302 303 SMYGEC	PhoP, residues 12 14 15 18 19 SYFRT (Escherichia coli, UniProt P23836)	Sort-seq, refers to: YFP reporter	E. coli	PhoQ-PhoP variant library, together with: 10 µM Mg2+	baseline: high Mg2+ state, higher = stronger signaling	fold induction	1.41

A few entries again (series 3):
Modification	mean fluorescence intensity
2'F-ANA at 2 4 5 6 8 9 11 12 13 14 15	46 a.u.
2'F-ANA at 1 2 4 8 9 10 11 12 13 15	58.4 a.u.
